Results from different studies.
Lines come from different studies, so protocols differ. “And” joins repeats or separate records; there may be more than shown. Numbers after ± are the reported error. Converted amounts (≈) assume the structure as drawn.

`Nc1ncc(-c2cnn(CCO)c2)c2scc(-c3ccc(NC(=O)Nc4cccc(F)c4)cc3)c12` gave an AUC(0-24 h) of 14700 ± 5220 ng·h/mL (patients, plasma; oral, 480 mg twice weekly, day 15).
Under “elimination rate constant”, `C=CC(N)CCC(=O)O` (stereo not shown) is recorded as 0.000222 s⁻¹ (male Sprague-Dawley rat, plasma; oral, 10 mg/kg, formulation 10, with: Sar 200 mg/kg).
The AUC of `CC1(C)S[C@@H]2[C@H](NC(=O)[C@H](N)c3ccc(O)cc3)C(=O)N2[C@H]1C(=O)O` is reported as 18700 ng·h/mL (male ICR mouse, liver; oral, 3 mg/kg, 24 h).
`C[C@]12CC[C@@H]3c4ccc(O)cc4CC[C@H]3[C@@H]1C[C@@H](O)[C@@H]2O` — result for “minimum serum concentration”: 0 ng/mL (GC-MS; breast cancer women on NSAI, serum; vaginal, 0.03 mg daily, 2 h, day 28).
`CCCCC[N+]1(CC(=O)OC2CCCCCCCCCCC2)CCCCC1.[I-]` gave an aqueous solubility of 0.196 mM (phosphate buffer with 2% DMSO; 90 min, pH 7.4, theoretical maximum 200 µM).
`CCN1C(=O)CNc2ncc(-c3ccc(-c4nc[nH]n4)nc3C)nc21` gave an AUC(0-12h) of 680 ng·h/mL (human, plasma; oral, 15 mg twice daily, first dose).
`CN[C@@H]1[C@H](O)[C@H](NC)[C@H]2O[C@]3(O)[C@H](O[C@@H]2[C@H]1O)O[C@H](C)C[C@H]3NC(=O)Cc1cc(Cl)c(F)cn1` has a parent remaining of 98.6% (glutathione conjugation; rat liver S9; 100 µM, 2 h, pH 7.4, with: glutathione 0.2 mM).
With `Cc1cccc(C)c1OCC(=O)N[C@@H](Cc1ccccc1)[C@@H](O)C[C@H](Cc1ccccc1)NC(=O)[C@H](C(C)C)N1CCCNC1=O` the amorphous solubility was 17 µg/mL (pyrene fluorescence; phosphate buffer with HPMCAS; pH 6.5, 37 °C).
For `CN[C@@H]1[C@H](O)[C@H](NC)[C@H]2O[C@]3(O)[C@H](O[C@@H]2[C@H]1O)O[C@H](C)C[C@H]3NC(=O)Cc1cc(Cl)c(C)cn1`, the parent remaining was 12.9% (glutathione conjugation; rat liver S9; 100 µM, 2 h, pH 7.4, with: glutathione 0.2 mM).
For `CCCCCCCCC[C@H](O)CC(=O)CCc1ccc(O)c(OC)c1`, “amount recovered, maximum” read 2040 ng (human ileostomy patients, ileal effluent; oral, 5 g TU-100, 4 h, no β-glucuronidase treatment).
`CCCOc1ccc([C@H]2CNC(=O)N2c2ccc3[nH]cnc3c2)cc1` has an AUC(0-12h) of 24500 ng·h/mL (human, elderly, fasted, plasma; oral, 800 mg twice daily, tablet, day 11, geometric mean).
With `CC(C)NC[C@@H](C(=O)N1CCN(c2ncnc3c2[C@H](C)C[C@H]3O)CC1)c1ccc(Cl)cc1` the AUC(0-∞) was 353 ng·h/mL (human, normal hepatic function, plasma; oral, 100 mg single dose, reference group versus Severe; reference: NCI classification).
For `COc1cc(Nc2ncc3c(n2)-c2ccc(Cl)cc2C(c2c(F)cccc2OC)=NC3)ccc1C(=O)O`, the trough concentration was 1170 ± 1150 nM (children, UGT1A1 extensive metabolizers, grade ≥2 toxicity, plasma; oral, 80 mg/m2, day 4).
With `CO[C@H]1C[C@@H]2CC[C@@H](C)[C@@](O)(O2)C(=O)C(=O)N2CCCC[C@H]2C(=O)O[C@H]([C@H](C)C[C@@H]2CC[C@@H](OCCO)[C@H](OC)C2)CC(=O)[C@H](C)/C=C(\C)[C@@H](O)[C@@H](OC)C(=O)[C@H](C)C[C@H](C)/C=C/C=C/C=C/1C` the C12 ratio was 16.1 (healthy human adults, blood; with: ritonavir-containing 3D regimen; reference: with over without regimen).
With `CCc1nc(C(N)=O)c(Nc2ccc(N3CCC(N4CCN(C)CC4)CC3)c(OC)c2)nc1NC1CCOCC1` the AUC(0-480 h) was 523 ng·h/mL (human, normal hepatic function, plasma; oral, 10 mg, single dose, fasted, geometric LS mean).
Under “peripheral volume of distribution (V2/F)”, `Cc1c(CN2CCN(C(=O)[C@H](C)O)CC2)sc2c(N3CCOCC3)nc(-c3cnc(N)nc3)nc12` is recorded as 9.13 L/kg (patients, plasma; oral, dose not given, population PK model).
For `C=CC(=C)CC[C@]1(C)[C@H](C)C[C@H](OC)[C@@]23C(=C[C@H](OC(=O)[C@@H](C)CC)C[C@@H]12)[C@@H](OC(C)=O)O[C@H]3OC(C)=O`, the haemolysis was 17% (haemolysis; 500 µM).
`CS/C(S)=N/CCCC[S+](C)[O-]` (racemic) — result for “mRNA fold change”: 0.292 (RT-PCR, item: Cyp2e1; female Sprague-Dawley rat, colon; oral gavage, 200 mg/kg, dosed for four days; reference: vehicle).
The plasma concentration of `Cc1c2c(n(-c3ccc(Cl)cc3Cl)c1-c1ccc(OS(=O)(=O)CCC(F)(F)F)cc1)CCN(N1CCCCC1)C2=O` is reported as 401 nM (LC-MS/MS; cynomolgus monkey 4, plasma; intravenous infusion, 1.0 mg/kg, 90 min, total concentration mid-point of PET).
For `CN[C@H](CC(C)C)C(=O)N[C@H]1C(=O)N[C@@H](CC(N)=O)C(=O)N[C@H]2C(=O)N[C@H]3C(=O)N[C@H](C(=O)N[C@H](C(=O)O)c4cc(O)cc(O)c4-c4cc3ccc4O)[C@H](O)c3ccc(c(Cl)c3)Oc3cc2cc(c3O[C@@H]2O[C@H](CO)[C@@H](O)[C@H](O)[C@H]2O[C@H]2C[C@](C)(N)[C@H](O)[C@H](C)O2)Oc2ccc(cc2Cl)[C@H]1O`, the HC50 was > 1410 µM (hemolysis; human red blood cells; 60 min, 37 °C, i=1.0,405,50).
The Tmax of `CCCC[C@H](NC(C)=O)C(=O)N[C@H]1CCC(=O)NC[C@@H](C(=O)N[C@@H](Cc2c[nH]c3ccccc23)C(N)=O)NC(=O)[C@H](CCCNC(=N)N)NC(=O)[C@@H](Cc2ccccc2)NC(=O)[C@H](Cc2c[nH]cn2)NC1=O` is reported as 0.44 h (beagle dog, male, plasma; subcutaneous, 40.0 mg/kg daily, day 28).
For `CCOc1cccc(C(=O)Nc2ccc(-c3nc4ccccc4[nH]3)cc2)c1`, the maximum solubility was 0.01 mM (0.1 M sodium acetate with 0.01% Triton X-100; pH 5.5).
`O=C(O)/C=C/c1ccc(O)c(O)c1` has an MRT(0-inf) of 25.9 ± 33.6 h (UPLC-MS/MS; Wistar rat, microcirculation dysfunction model, plasma; oral, 100 mg/kg Salvia miltiorrhiza stem-leaf extract FT).
For `CO[C@H]1C[C@@H]2CC[C@@H](C)[C@@](O)(O2)C(=O)C(=O)N2CCCC[C@H]2C(=O)O[C@H]([C@H](C)C[C@@H]2CC[C@@H](O)[C@H](OC)C2)CC(=O)[C@H](C)/C=C(\C)[C@@H](O)[C@@H](OC)C(=O)[C@H](C)C[C@H](C)/C=C/C=C/C=C/1C`, the Cmin was 14.9 ± 2 ng/mL (NOD/SCID mice, male, blood or plasma; intraperitoneal, 0.5 mg/kg every 48 h, 48 h).
With `CCCS(=O)(=O)Nc1ccc(F)c(C(=O)c2c[nH]c3ncc(-c4ccc(Cl)cc4)cc23)c1F` the unbound fraction was 8.7e-06 ± 1.5e-06 (rapid equilibrium dialysis; 100% human plasma; 150 µM, 4 h).
The AUC(0-24) of `CC(C)c1nc(CN(C)C(=O)N[C@H](C(=O)N[C@@H](Cc2ccccc2)C[C@H](O)[C@H](Cc2ccccc2)NC(=O)OCc2cncs2)C(C)C)cs1` is reported as 14200 ng·h/mL (HIV-infected patients, plasma; oral, 100 mg once daily, day 1, steady state, with: atazanavir 300 mg once daily).
`Cc1cc2nc3c(=O)[nH]c(=O)nc-3n(C[C@H](O)[C@H](O)[C@H](O)COP(=O)(O)O)c2cc1C` gave an aqueous solubility of 1300 mM (≈ 593 mg/mL) (1 M KOH aqueous; pH 14, no hydrotrope).
`CC(=O)Nc1ccc(O[C@@H]2O[C@H](C(=O)O)[C@@H](O)[C@H](O)[C@H]2O)cc1` gave an AUC(0-12 h) of 73900 ng·h/mL (healthy volunteers, both sexes, plasma; oral, 650 mg acetaminophen, day 1).
`CC(C)[C@H](NC(=O)[C@@H]1CCCN1C(=O)[C@H](CCCNC(=N)N)NC(=O)[C@H](CS)NC(=O)[C@H](Cc1c[nH]c2ccccc12)NC(=O)[C@H](CCCNC(=N)N)NC(=O)[C@@H](Cc1ccccc1)NC(=O)[C@H](Cc1c[nH]cn1)NC(=O)[C@H](CCC(=O)O)NC(=O)[C@H](CS)NC(=O)[C@H](CS)NC(=O)[C@H](CCCCN)NC(=O)[C@@H]1CC(=O)N[C@@H](CCCNC(=N)N)C(=O)N[C@@H](C(C)C)C(=O)N[C@@H](CC(=O)O)C(=O)N[C@H](Cc2ccc(O)cc2)C(=O)N1)C(N)=O` [technetium-99m labelled] gave a tissue uptake of 1.32 ± 0.14 %ID/g (C57 mouse, female, B16/F1 melanoma, liver; intravenous, 2 h, with: NDP-MSH 10 µg co-injected).
`O=S(=O)(c1ccc(F)cc1)c1cc(F)c(O)c2ncccc12` has a free concentration of 7.7 nM (rat Sprague-Dawley male, brain; oral, 10 mg/kg, 4 h).
Under “acetonitrile at elution”, `CCCCCCCCCCCCCNCC(=O)N(CCCCN)CC(=O)N(CC(=O)N(CC(=O)N(CCN)CC(N)=O)C1CCCCC1)C1CCCCC1` is recorded as 69.3% (preparative RP-HPLC C18; water to acetonitrile gradient; 0.05% TFA in eluent; higher = more hydrophobic).
For `Cn1nnc2c(C(N)=O)ncn2c1=O`, the plasma half-life was 0.7 h (FVB mice, all strains; intravenous, 50 mg/kg).
With `Cc1ccc(NC(=O)c2ccc(CN3CCN(C)CC3)cc2)cc1Nc1nccc(-c2cncc(-c3oncc3C)c2)n1` the Tmax was 4.79 h (Parkinson's disease patients, plasma; oral, 100 mg once daily, day 1, 7-day dosing, mean).
Under “half-life range over subjects”, `Cn1c(-c2ccc(C(N)=O)cc2F)nnc1C(C)(C)Oc1c(F)cc(Cl)cc1F` is recorded as 10.5 to 27.4 h (young non-Japanese adults, plasma; oral, 20 mg single dose, day 1, high-dose multiple-dose study).
`CS(=O)(=O)OC[C@H](O)[C@@H]1CO1` — result for “RBC/plasma partition coefficient”: 0.48 and 0.7 (Wistar rat, female, red blood cells and plasma; intraperitoneal, 500 mg/kg treosulfan, 1 h).
For `C[C@@H](O)[C@H]1C(=O)N2C(C(=O)O)=C(S[C@@H]3CN[C@H](C(=O)N(C)C)C3)[C@H](C)[C@H]12`, “time above MIC” read 10% (microdialysis; pig, Danish Landrace, cortical bone; intravenous, 1000 mg over 10 min, 450 min dosing interval, with: 2.0 µg/mL MIC; reference: dosing interval).
For `coproporphyrin I`, the AUCtau ratio was 99.6% (item: compound endogenous; human, plasma; concentration not given, with: rosuvastatin and finerenone; reference: with over without finerenone).
Under “lowest significant concentration”, `CCCCCCCCc1ccc(CCC(N)(CO)COP(=O)(O)O)cc1` (stereo not shown) is recorded as ≥ 1 nM (contraction; rat mesenteric arteries; reference: solvent).
`Cc1nc2cccc(OCC(C)(C)C(=O)NC(C)C)c2c(N)c1C(=O)O` has a half-life of 0.84 h (Sprague-Dawley rat Crl:CD(SD), male, plasma; oral gavage, 10 mg/kg, day 7).
For `O=C1N=C(N2CCOCC2)CN1c1ccc(Cl)cc1`, the AUC(0-inf) was 88800 ng·h/mL (beagle dog, both sexes, plasma; oral, 30 mg/kg, tablets, fed, day 0).

Repeated from above:
Under “peripheral volume of distribution (V2/F)”, `Cc1c(CN2CCN(C(=O)[C@H](C)O)CC2)sc2c(N3CCOCC3)nc(-c3cnc(N)nc3)nc12` is recorded as 9.13 L/kg (patients, plasma; oral, dose not given, population PK model).
Under “elimination rate constant”, `C=CC(N)CCC(=O)O` (stereo not shown) is recorded as 0.000222 s⁻¹ (male Sprague-Dawley rat, plasma; oral, 10 mg/kg, formulation 10, with: Sar 200 mg/kg).
`CC(C)[C@H](NC(=O)[C@@H]1CCCN1C(=O)[C@H](CCCNC(=N)N)NC(=O)[C@H](CS)NC(=O)[C@H](Cc1c[nH]c2ccccc12)NC(=O)[C@H](CCCNC(=N)N)NC(=O)[C@@H](Cc1ccccc1)NC(=O)[C@H](Cc1c[nH]cn1)NC(=O)[C@H](CCC(=O)O)NC(=O)[C@H](CS)NC(=O)[C@H](CS)NC(=O)[C@H](CCCCN)NC(=O)[C@@H]1CC(=O)N[C@@H](CCCNC(=N)N)C(=O)N[C@@H](C(C)C)C(=O)N[C@@H](CC(=O)O)C(=O)N[C@H](Cc2ccc(O)cc2)C(=O)N1)C(N)=O` [technetium-99m labelled] gave a tissue uptake of 1.32 ± 0.14 %ID/g (C57 mouse, female, B16/F1 melanoma, liver; intravenous, 2 h, with: NDP-MSH 10 µg co-injected).
The AUC of `CC1(C)S[C@@H]2[C@H](NC(=O)[C@H](N)c3ccc(O)cc3)C(=O)N2[C@H]1C(=O)O` is reported as 18700 ng·h/mL (male ICR mouse, liver; oral, 3 mg/kg, 24 h).
For `CN[C@@H]1[C@H](O)[C@H](NC)[C@H]2O[C@]3(O)[C@H](O[C@@H]2[C@H]1O)O[C@H](C)C[C@H]3NC(=O)Cc1cc(Cl)c(C)cn1`, the parent remaining was 12.9% (glutathione conjugation; rat liver S9; 100 µM, 2 h, pH 7.4, with: glutathione 0.2 mM).
The Tmax of `CCCC[C@H](NC(C)=O)C(=O)N[C@H]1CCC(=O)NC[C@@H](C(=O)N[C@@H](Cc2c[nH]c3ccccc23)C(N)=O)NC(=O)[C@H](CCCNC(=N)N)NC(=O)[C@@H](Cc2ccccc2)NC(=O)[C@H](Cc2c[nH]cn2)NC1=O` is reported as 0.44 h (beagle dog, male, plasma; subcutaneous, 40.0 mg/kg daily, day 28).
`Cc1nc2cccc(OCC(C)(C)C(=O)NC(C)C)c2c(N)c1C(=O)O` has a half-life of 0.84 h (Sprague-Dawley rat Crl:CD(SD), male, plasma; oral gavage, 10 mg/kg, day 7).
